Measurements collected from several papers.
Protocols differ between the studies behind these lines.

Structure (SMILES)	species	matrix	route	dose	setting	clearance
Nc1nc2cc(CC[C@H]3C[C@@H](n4ccc5c(N)ncnc54)[C@H](O)[C@@H]3O)ccc2cc1Br	C57BL/6 mouse	plasma	intravenous	2.5 mg/kg	single dose	6.6 mL/min/kg
COC1C=COC2(C)Oc3c(C)c(O)c4c(c3C2=O)C2=NC3(CCN(CC(C)C)CC3)NC2=C(NC(=O)C(C)=CC=CC(C)C(O)C(C)C(O)C(C)C(OC(=O)Nc2cnccn2)C1C)C4=O (centres unmarked)	female CD-1 mouse	plasma	intravenous	5 mg/kg	–	2.2 mL/min/kg
C[N+]1(CC(=O)OC2CCCCCCCCCCC2)CCCCC1	mouse	plasma	intraperitoneal	1 mg/kg	single dose	3.43 L/h
C=C(C)C(=O)Nc1ccc(-c2c(-c3ccc(Oc4nccc(C)n4)cc3)c3c(N)ncnc3n2C)cc1	nude mouse	plasma	intravenous	–	–	3.4 mL/min/kg
Nc1ccn(C[C@@H](CO)OCP(=O)(O)OCCCS(=O)(=O)CCCCCCCCCCCCC2CCC2)c(=O)n1	mouse	plasma	intravenous	3 mg/kg	single dose	104 mL/min/kg
CCCC[C@@H]1NC(=O)[C@H](Cc2ccc(O)cc2)NC(=O)[C@@H]2CCCN2C(=O)[C@H](CC(=O)O)NC(=O)[C@H](C)NC(=O)[C@H](Cc2ccccc2)NC(=O)[C@@H]2CSCCC(=O)N3CN(CN(C3)C(=O)CCSC[C@@H](C(=O)N[C@@H](C)C(N)=O)NC1=O)C(=O)CCSC[C@H](NC(C)=O)C(=O)N[C@@H](CC(C)(C)C)C(=O)N1CCC[C@H]1C(=O)N[C@@H](CCC(=O)O)C(=O)N[C@H](CCCCNC(=O)CCc1cn(CCOCCOCCOCCN(CCOCCOCCOCCC(=O)N[C@@H](C)C(=O)N[C@@H](CCCCNC(=N)N)C(=O)N[C@@H](CC(=O)O)C(=O)N[C@H]3CSCCC(=O)N4CN5CN(C4)C(=O)CCSC[C@H](NC(=O)[C@H](CC(C)C)NC(=O)[C@@H]4CCCN4C(=O)[C@H](CC(N)=O)NC(=O)[C@H](C(C)C)NC(=O)[C@H](CC(C)C)NC(=O)[C@@H]4C[C@@H](O)CN4C3=O)C(=O)N[C@@H](CC(C)C)C(=O)N[C@@H](Cc3c[nH]cn3)C(=O)N3CCC[C@H]3C(=O)N[C@H](CC(=O)O)C(=O)N[C@@H](Cc3c[nH]c4ccccc34)C(=O)N[C@@H](CCCCNC(=N)N)C(=O)N[C@H](C(N)=O)CSCCC5=O)CCOCCOCCOCCn3cc(CCC(=O)NCCCC[C@H]4NC(=O)[C@H](CCC(=O)O)NC(=O)[C@@H]5CCCN5C(=O)[C@H](CC(C)(C)C)NC(=O)[C@@H](NC(C)=O)CSCCC(=O)N5CN6CN(C5)C(=O)CCSC[C@H](NC(=O)[C@H](Cc5ccc(O)cc5)NC(=O)[C@@H]5CCCN5C4=O)C(=O)N[C@@H](Cc4ccccc4)C(=O)N[C@@H](C)C(=O)N[C@@H](CC(=O)O)C(=O)N4CCC[C@H]4C(=O)N[C@@H](Cc4ccc(O)cc4)C(=O)N[C@@H](CCCC)C(=O)N[C@H](C(=O)N[C@@H](C)C(N)=O)CSCCC6=O)nn3)nn1)C(=O)N1CCC[C@H]1C(=O)N[C@@H](Cc1ccc(O)cc1)C(=O)N2	mouse	plasma	intravenous	5 mg/kg	–	17 mL/min/kg
COC1C=COC2(C)Oc3c(C)c(O)c4c(c3C2=O)C2=NC3(CCN(CC(C)C)CC3)NC2=C(NC(=O)C(C)=CC=CC(C)C(O)C(C)C(O)C(C)C(OC(=O)Nc2cccnn2)C1C)C4=O (centres unmarked)	female CD-1 mouse	plasma	intravenous	5 mg/kg	–	2.27 mL/min/kg
FC(F)(F)c1cc(Nc2nc(-c3ccccc3)cc(C3CCNCC3)n2)ccn1	male CD-1 mouse	plasma	intravenous	3 mg/kg	–	43 mL/min/kg
NS(=O)(=O)NCC(F)(F)c1ccccc1F	mouse	plasma	intravenous	5 mg/kg	–	6.43 mL/min/kg
Nc1ccn(C[C@@H](CO)OCP(=O)(O)OCCCS(=O)(=O)CCCCCCCCCCC2CCC2)c(=O)n1	mouse	plasma	intravenous	3 mg/kg	single dose	152 mL/min/kg
CCC/C(=C\C1=C(F)C(=O)c2ccccc2C1=O)C(=O)N(CC)CC	mouse	plasma	intravenous	5 mg/kg	–	2.5 mL/min/kg
COC(=O)c1ccc2c(c1)NC(=O)/C2=C(\Nc1ccc2c(c1)CCN2C(=O)CN1CCOCC1)c1ccccc1	CD-1 mouse	blood	intravenous	10 mg/kg	–	29.7 mL/min/kg
Cc1ccc2oc(-c3c4c(N)n[nH]c(=O)c4nn3-c3ccc(NC(=O)/C=C/CN(C)C)cc3)c(C)c2c1	mouse	plasma	intravenous	1 mg/kg	–	65.2 mL/min/kg
COC1C=COC2(C)Oc3c(C)c(O)c4c(c3C2=O)C2=NC3(CCN(CC(C)C)CC3)NC2=C(NC(=O)C(C)=CC=CC(C)C(O)C(C)C(O)C(C)C(OC(=O)c2cccnc2)C1C)C4=O (centres unmarked)	female CD-1 mouse	plasma	intravenous	5 mg/kg	–	2.98 mL/min/kg

Repeated from above:
Structure (SMILES)	species	matrix	route	dose	setting	clearance
COC1C=COC2(C)Oc3c(C)c(O)c4c(c3C2=O)C2=NC3(CCN(CC(C)C)CC3)NC2=C(NC(=O)C(C)=CC=CC(C)C(O)C(C)C(O)C(C)C(OC(=O)Nc2cnccn2)C1C)C4=O (centres unmarked)	female CD-1 mouse	plasma	intravenous	5 mg/kg	–	2.2 mL/min/kg
CCCC[C@@H]1NC(=O)[C@H](Cc2ccc(O)cc2)NC(=O)[C@@H]2CCCN2C(=O)[C@H](CC(=O)O)NC(=O)[C@H](C)NC(=O)[C@H](Cc2ccccc2)NC(=O)[C@@H]2CSCCC(=O)N3CN(CN(C3)C(=O)CCSC[C@@H](C(=O)N[C@@H](C)C(N)=O)NC1=O)C(=O)CCSC[C@H](NC(C)=O)C(=O)N[C@@H](CC(C)(C)C)C(=O)N1CCC[C@H]1C(=O)N[C@@H](CCC(=O)O)C(=O)N[C@H](CCCCNC(=O)CCc1cn(CCOCCOCCOCCN(CCOCCOCCOCCC(=O)N[C@@H](C)C(=O)N[C@@H](CCCCNC(=N)N)C(=O)N[C@@H](CC(=O)O)C(=O)N[C@H]3CSCCC(=O)N4CN5CN(C4)C(=O)CCSC[C@H](NC(=O)[C@H](CC(C)C)NC(=O)[C@@H]4CCCN4C(=O)[C@H](CC(N)=O)NC(=O)[C@H](C(C)C)NC(=O)[C@H](CC(C)C)NC(=O)[C@@H]4C[C@@H](O)CN4C3=O)C(=O)N[C@@H](CC(C)C)C(=O)N[C@@H](Cc3c[nH]cn3)C(=O)N3CCC[C@H]3C(=O)N[C@H](CC(=O)O)C(=O)N[C@@H](Cc3c[nH]c4ccccc34)C(=O)N[C@@H](CCCCNC(=N)N)C(=O)N[C@H](C(N)=O)CSCCC5=O)CCOCCOCCOCCn3cc(CCC(=O)NCCCC[C@H]4NC(=O)[C@H](CCC(=O)O)NC(=O)[C@@H]5CCCN5C(=O)[C@H](CC(C)(C)C)NC(=O)[C@@H](NC(C)=O)CSCCC(=O)N5CN6CN(C5)C(=O)CCSC[C@H](NC(=O)[C@H](Cc5ccc(O)cc5)NC(=O)[C@@H]5CCCN5C4=O)C(=O)N[C@@H](Cc4ccccc4)C(=O)N[C@@H](C)C(=O)N[C@@H](CC(=O)O)C(=O)N4CCC[C@H]4C(=O)N[C@@H](Cc4ccc(O)cc4)C(=O)N[C@@H](CCCC)C(=O)N[C@H](C(=O)N[C@@H](C)C(N)=O)CSCCC6=O)nn3)nn1)C(=O)N1CCC[C@H]1C(=O)N[C@@H](Cc1ccc(O)cc1)C(=O)N2	mouse	plasma	intravenous	5 mg/kg	–	17 mL/min/kg
